Results of several laboratories.
Protocols differ between the studies behind these lines. Values joined by “and” are separate records of one study, mostly repeats; a detail may differ. ± marks the error that the study gave.
Chain of UniProt Q9DB29 (whole entry, looked up): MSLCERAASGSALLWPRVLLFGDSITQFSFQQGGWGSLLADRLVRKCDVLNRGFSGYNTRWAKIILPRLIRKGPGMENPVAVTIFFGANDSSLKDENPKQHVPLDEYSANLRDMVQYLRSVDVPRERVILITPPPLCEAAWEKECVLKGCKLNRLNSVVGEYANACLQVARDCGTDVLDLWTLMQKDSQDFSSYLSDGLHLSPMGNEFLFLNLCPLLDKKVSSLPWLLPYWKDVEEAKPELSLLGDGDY
Chain of UniProt Q9UM07 (whole entry, looked up): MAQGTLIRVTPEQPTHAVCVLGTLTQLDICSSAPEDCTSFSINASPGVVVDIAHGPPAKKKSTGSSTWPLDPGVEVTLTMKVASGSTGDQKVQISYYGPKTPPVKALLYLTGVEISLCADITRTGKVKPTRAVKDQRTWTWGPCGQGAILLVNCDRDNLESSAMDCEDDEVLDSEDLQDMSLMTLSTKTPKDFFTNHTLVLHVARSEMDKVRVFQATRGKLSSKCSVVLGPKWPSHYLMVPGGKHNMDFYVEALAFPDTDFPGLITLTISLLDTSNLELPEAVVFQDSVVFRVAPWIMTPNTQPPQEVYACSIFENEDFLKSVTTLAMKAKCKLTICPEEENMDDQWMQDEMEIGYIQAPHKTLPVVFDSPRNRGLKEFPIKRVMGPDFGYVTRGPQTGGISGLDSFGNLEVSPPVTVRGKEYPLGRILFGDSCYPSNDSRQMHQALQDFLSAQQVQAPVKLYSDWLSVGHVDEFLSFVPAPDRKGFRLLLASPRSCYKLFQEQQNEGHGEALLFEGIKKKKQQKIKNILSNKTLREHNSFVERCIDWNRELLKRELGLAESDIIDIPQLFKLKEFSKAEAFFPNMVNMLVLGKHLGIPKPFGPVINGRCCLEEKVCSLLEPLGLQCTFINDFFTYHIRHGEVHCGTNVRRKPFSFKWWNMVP
Chain of UniProt Q8I2X3 (whole entry, looked up): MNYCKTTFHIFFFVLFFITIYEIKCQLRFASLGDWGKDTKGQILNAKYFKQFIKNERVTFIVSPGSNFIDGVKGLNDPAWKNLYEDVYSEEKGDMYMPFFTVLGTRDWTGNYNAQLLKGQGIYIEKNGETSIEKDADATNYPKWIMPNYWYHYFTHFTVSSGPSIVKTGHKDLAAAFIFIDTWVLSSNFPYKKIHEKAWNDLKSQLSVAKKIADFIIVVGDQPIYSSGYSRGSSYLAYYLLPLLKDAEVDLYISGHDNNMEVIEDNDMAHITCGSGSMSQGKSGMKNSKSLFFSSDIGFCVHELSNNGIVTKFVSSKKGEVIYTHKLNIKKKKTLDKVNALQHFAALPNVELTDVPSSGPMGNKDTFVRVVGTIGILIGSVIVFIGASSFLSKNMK
Chain of UniProt P42680 (whole entry, looked up): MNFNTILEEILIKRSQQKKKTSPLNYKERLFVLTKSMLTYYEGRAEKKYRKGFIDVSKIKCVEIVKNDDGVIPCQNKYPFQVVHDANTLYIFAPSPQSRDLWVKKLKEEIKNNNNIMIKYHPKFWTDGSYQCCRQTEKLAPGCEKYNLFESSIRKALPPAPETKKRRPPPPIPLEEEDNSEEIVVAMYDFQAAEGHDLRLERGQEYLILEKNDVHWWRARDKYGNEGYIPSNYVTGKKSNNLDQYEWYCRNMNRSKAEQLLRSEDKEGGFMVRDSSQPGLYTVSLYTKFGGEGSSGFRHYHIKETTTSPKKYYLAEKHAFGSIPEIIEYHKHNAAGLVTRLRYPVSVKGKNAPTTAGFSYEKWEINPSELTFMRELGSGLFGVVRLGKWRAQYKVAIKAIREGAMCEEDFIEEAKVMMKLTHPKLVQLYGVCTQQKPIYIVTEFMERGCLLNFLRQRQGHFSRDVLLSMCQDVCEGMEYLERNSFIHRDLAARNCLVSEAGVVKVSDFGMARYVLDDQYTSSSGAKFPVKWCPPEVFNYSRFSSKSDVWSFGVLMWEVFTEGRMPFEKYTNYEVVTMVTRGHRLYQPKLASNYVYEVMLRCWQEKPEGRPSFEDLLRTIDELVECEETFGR
Chain of UniProt Q704Y3 (whole entry, unmodified, looked up): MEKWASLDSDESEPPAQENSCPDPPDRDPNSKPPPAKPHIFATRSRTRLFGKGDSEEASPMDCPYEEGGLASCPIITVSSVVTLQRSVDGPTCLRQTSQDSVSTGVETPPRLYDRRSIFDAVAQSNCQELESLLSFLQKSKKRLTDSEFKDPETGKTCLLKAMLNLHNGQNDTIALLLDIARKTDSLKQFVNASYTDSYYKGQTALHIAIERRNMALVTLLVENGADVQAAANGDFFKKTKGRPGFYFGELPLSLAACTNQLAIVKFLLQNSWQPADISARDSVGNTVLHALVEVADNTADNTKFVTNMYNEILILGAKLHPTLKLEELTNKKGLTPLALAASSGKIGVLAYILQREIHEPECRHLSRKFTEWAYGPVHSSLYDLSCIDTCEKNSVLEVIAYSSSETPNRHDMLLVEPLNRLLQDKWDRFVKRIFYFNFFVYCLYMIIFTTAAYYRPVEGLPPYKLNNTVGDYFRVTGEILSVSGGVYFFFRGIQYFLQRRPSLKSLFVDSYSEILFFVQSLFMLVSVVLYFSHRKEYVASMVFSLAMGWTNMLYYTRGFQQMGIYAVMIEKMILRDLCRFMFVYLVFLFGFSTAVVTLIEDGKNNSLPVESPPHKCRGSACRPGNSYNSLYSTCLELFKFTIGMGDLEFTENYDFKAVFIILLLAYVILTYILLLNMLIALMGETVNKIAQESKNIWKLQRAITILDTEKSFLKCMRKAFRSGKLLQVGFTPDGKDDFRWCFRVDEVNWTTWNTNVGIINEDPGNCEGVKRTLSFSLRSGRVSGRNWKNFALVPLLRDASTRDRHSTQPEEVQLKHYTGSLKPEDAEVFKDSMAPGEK
Chain of UniProt Q9Y6M4 (whole entry, looked up): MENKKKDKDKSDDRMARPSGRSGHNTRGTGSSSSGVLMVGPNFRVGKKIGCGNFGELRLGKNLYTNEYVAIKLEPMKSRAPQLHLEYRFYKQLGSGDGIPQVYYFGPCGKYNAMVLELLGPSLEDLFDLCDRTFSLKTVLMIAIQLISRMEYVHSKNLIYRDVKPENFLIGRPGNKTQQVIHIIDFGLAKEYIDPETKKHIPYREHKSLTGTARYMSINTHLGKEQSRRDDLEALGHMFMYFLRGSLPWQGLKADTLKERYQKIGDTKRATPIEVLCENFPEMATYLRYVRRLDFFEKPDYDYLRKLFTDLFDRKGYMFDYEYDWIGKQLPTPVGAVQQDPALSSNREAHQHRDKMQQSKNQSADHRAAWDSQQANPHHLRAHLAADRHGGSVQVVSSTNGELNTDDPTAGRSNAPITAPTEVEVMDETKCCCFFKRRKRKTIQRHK
Chain of UniProt Q9Y6R4 (whole entry, looked up): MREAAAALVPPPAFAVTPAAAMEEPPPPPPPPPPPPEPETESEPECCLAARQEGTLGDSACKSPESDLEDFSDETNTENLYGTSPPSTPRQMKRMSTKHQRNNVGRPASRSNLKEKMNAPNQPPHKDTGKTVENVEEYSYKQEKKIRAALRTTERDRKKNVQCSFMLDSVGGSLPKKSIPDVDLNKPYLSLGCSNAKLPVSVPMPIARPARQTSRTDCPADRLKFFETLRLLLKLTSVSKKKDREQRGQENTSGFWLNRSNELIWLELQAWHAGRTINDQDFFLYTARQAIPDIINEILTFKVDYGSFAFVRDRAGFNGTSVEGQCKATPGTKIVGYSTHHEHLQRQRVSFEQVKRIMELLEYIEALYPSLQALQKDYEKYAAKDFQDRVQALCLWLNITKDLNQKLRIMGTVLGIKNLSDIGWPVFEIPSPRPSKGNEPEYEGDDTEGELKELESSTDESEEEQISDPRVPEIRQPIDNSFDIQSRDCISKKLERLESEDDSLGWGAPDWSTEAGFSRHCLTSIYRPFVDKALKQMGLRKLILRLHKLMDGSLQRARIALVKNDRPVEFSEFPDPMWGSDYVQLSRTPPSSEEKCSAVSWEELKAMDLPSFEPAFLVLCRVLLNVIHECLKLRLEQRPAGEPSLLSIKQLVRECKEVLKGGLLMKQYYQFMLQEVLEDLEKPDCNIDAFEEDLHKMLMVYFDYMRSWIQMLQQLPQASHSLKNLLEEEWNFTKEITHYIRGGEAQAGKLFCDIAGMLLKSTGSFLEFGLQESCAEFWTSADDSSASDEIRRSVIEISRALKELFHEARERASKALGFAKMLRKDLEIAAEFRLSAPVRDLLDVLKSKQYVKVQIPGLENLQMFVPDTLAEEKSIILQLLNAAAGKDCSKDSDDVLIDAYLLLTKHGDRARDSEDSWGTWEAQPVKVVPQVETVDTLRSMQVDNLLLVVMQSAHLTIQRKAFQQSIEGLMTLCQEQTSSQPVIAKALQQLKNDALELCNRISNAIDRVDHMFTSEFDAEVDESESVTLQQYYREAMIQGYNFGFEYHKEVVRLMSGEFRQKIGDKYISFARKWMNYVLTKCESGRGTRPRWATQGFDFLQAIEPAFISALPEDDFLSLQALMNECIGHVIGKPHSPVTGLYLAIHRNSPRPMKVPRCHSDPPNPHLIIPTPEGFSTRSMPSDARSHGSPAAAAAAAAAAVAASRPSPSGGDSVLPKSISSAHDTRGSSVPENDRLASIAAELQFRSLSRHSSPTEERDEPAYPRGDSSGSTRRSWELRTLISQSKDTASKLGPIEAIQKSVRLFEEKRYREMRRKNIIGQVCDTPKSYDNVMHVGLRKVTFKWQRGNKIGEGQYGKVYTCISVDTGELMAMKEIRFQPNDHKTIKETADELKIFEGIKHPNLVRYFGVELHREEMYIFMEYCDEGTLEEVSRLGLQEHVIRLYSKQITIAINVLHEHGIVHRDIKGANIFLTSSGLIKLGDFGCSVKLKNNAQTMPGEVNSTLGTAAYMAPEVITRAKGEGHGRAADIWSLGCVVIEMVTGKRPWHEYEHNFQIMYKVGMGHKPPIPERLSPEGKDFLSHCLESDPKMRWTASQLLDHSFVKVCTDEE

`CC(C)[C@H]1NC(=O)C[C@H]2/C=C/CCSSC[C@@H](NC1=O)C(=O)N[C@H](Cc1cccc3ccccc13)C(=O)NCC(=O)O2` gave an inhibition of 2.7% (MAP3K1 (Homo sapiens, UniProt Q13233); 10 µM).
For `CS(C)(=O)=Nc1ccc(-c2ccc(-c3nc4cc(O[C@@H]5CO[C@H]6[C@@H]5OC[C@H]6O)[nH]c4cc3F)cc2)cc1`, the inhibition was -16% (Insulin-like growth factor 1 receptor, phosphorylated (IGF1R, Homo sapiens, UniProt P08069); enzyme activity, inhibitor; 10 µM).
With `CC[C@H](C)[C@H](NC(=O)[C@H](CCCNC(=N)N)NC(=O)[C@H](CCCNC(=N)N)NC(=O)[C@H](CC(C)C)NC(=O)[C@H](Cc1ccccc1)NC(=O)CNC(=O)CNC(=O)[C@@H](N)Cc1ccc(O)cc1)C(=O)N[C@@H](CCCNC(=N)N)C(=O)N1CCC[C@H]1C(=O)N[C@@H](CCCCN)C(=O)N[C@@H](CC(C)C)C(=O)N[C@@H](CCCCN)C(=O)O` the Emax was 68.6% (GPR139 (Homo sapiens, UniProt Q6DWJ6); Gαi2 activation, agonist, BRET; HEK293T/17; 40 µM).
For `COCC1CCCCN1C(=O)n1cc(C(O)(c2ccccc2)c2ccccc2)nn1` (stereo not shown), “SILAC activity ratio” read 1.77 and 1.44 and 1.32 and 1.27 and 1.24 and 2.35 (Isoamyl acetate-hydrolyzing esterase 1 homolog (Iah1, Mus musculus, UniProt Q9DB29); probe labelling, inhibitor, competitive ABPP-SILAC, refers to: Iah1; mouse T cells; concentration not given, 4 h, single peptide; baseline: treated over DMSO cells, lower = stronger inhibition).
With `C[C@H](NCc1ccc(-c2ccc(C(F)(F)F)cc2)cc1)C(N)=O` the inhibition was 1% (MAP3K4 (Homo sapiens, UniProt Q9Y6R4); cell-free assay, competition with immobilised ligand; 1 µM).
For `O=C1NC(=O)c2c1c1cc(F)c[n+]3c1c1c2c2cc(O)ccc2[n]1[Ru-4]312([N]=C=S)[S+]3CC[S+]1CC[S+]2CC3` (stereo not shown), the remaining activity was -2% (CSNK1G3 (Homo sapiens, UniProt Q9Y6M4); enzyme activity; 100 nM, human enzyme, together with: 10 µM ATP; baseline: untreated).
`CCc1nnc(-c2c(OC)cc(-c3cnc4cc(-c5cnn(C)c5)ccn34)cc2OC)o1` has a remaining binding of 107% (HRH2 (Homo sapiens, UniProt P25021); antagonist radioligand, radioligand binding; 10 µM, SafetyScreen44 H2 mean; lower = stronger displacement).
With `CC(C)CC(O)(CC(C)C)c1cn(C(=O)N2CCCC2)nn1` the activity ratio-of-ratios was 1.27 (Phospholipase DDHD1 (Ddhd1, Mus musculus, UniProt Q80YA3); probe labelling, inhibitor, refers to: Ddhd1; mouse, brain; i.p., 0.8 mg/kg, 4 h, protein level; baseline: treated over vehicle mice, lower = stronger inhibition).
For `CCCCC/C=C\C/C=C\C/C=C\C/C=C\CCCC(=O)NCCc1ccc(O)c(O)c1`, “maximal open probability” read 0.46 ± 0.09 (Trpv1 (Mus musculus, UniProt Q704Y3, T551V); ion current, agonist, whole-cell patch clamp; T551V; baseline: 3 mM 2-APB).
With `CN(C)[C@H]1C[C@@]23CC[C@@]4(O2)C(=CC[C@]2(C)[C@@H](c5ccc6ccncc6c5)CC[C@H]24)C=C3[C@@H](O)[C@@H]1O` the inhibition was 4.2% (TEC (Homo sapiens, UniProt P42680); ATP probe labelling, inhibitor, KiNativ profiling; 1 µM).
The reactivity ratio of `C#CCCCCOc1ccc2c(c1)CCCN2C(=O)CCl` is reported as 1.41 (Phosphatidylserine lipase ABHD16A (Homo sapiens, UniProt O95870); mass spectrometry profiling, refers to: ABHD16A; H460 cell lysate; 100 µM over 10 µM, UniProt O95870; baseline: high over low concentration).
`O=C(N1CCCCC1)n1ccnn1`: “SILAC activity ratio” 1.16 (Alpha/beta hydrolase domain-containing protein 17B (Abhd17b, Mus musculus, UniProt Q7M759); probe labelling, inhibitor, competitive ABPP-SILAC, refers to: Fam108b1; mouse T cells; concentration not given, 4 h, protein level; baseline: treated over DMSO cells, lower = stronger inhibition).
The activation of `Cc1cc(Nc2nc(C[C@@]3(C(=O)O)CCN(Cc4cccc(Cl)c4F)[C@H](C)C3)cc(C)c2F)[nH]n1` is reported as -1.05% (EDNRA (Homo sapiens, UniProt P25101); agonist; 10 µM).
`COc1ccc2cc1Oc1cc3c(cc1OC)CCN(C)C3Cc1ccc(cc1)Oc1c(O)c(OC)cc3c1C(C2)N(C)CC3` (stereo not shown) gave a koff of 0.0145 s⁻¹ (Glideosome-associated protein 50 (GAP50, Plasmodium falciparum, UniProt Q8I2X3); binding, surface plasmon resonance; 1:1 binding model).
`N[C@H](C(=O)N1CCCC1)C1CCN(c2nccc3c(-c4ncc(Cl)cc4Cl)cccc23)CC1` gave a melting temperature of 53.2 °C and 53.5 °C (PADI4 (Homo sapiens, UniProt Q9UM07); thermal shift; 0.00302 µM).
For `C[C@]1(COC(=O)c2ccccc2O)[C@H](C(=O)O)N2C(=O)/C(=C/c3ccccn3)[C@H]2S1(=O)=O`, the Ki (inactivation) was 920 ± 152 nM (Beta-lactamase (blaOXA-33, Acinetobacter baumannii, UniProt Q8RLA6)).
`CN(C)CCCN1C(=O)CSC1c1ccccc1` (stereo not shown): IC50 “inactive” (uncharacterized protein (Apis mellifera, UniProt A0A7M6W5G5); Ellman; 1000 µM, together with: acetylthiocholine).
For `CCOC(=O)[C@@H]1Cc2c(cc([N+](=O)[O-])cc2[N+](=O)[O-])[C@H](O)[C@]12C(=O)Nc1ccc(Br)cc12`, the remaining binding was 60% (Tyrosine-protein kinase ABL1, phosphorylated (ABL1, Homo sapiens, UniProt P00519, E255K); binding, competition with immobilised ligand; 0.1 µM).
`Cc1cc(=O)oc2cc(OCCCCCC[Se]C#N)ccc12` gave a selectivity ratio of greater than 1290 (CA12 (Homo sapiens, UniProt O43570); stopped-flow CO2 hydration; baseline: Ki CA II over Ki CA XII).

A few entries again:
With `CC[C@H](C)[C@H](NC(=O)[C@H](CCCNC(=N)N)NC(=O)[C@H](CCCNC(=N)N)NC(=O)[C@H](CC(C)C)NC(=O)[C@H](Cc1ccccc1)NC(=O)CNC(=O)CNC(=O)[C@@H](N)Cc1ccc(O)cc1)C(=O)N[C@@H](CCCNC(=N)N)C(=O)N1CCC[C@H]1C(=O)N[C@@H](CCCCN)C(=O)N[C@@H](CC(C)C)C(=O)N[C@@H](CCCCN)C(=O)O` the Emax was 68.6% (GPR139 (Homo sapiens, UniProt Q6DWJ6); Gαi2 activation, agonist, BRET; HEK293T/17; 40 µM).
`CCc1nnc(-c2c(OC)cc(-c3cnc4cc(-c5cnn(C)c5)ccn34)cc2OC)o1` has a remaining binding of 107% (HRH2 (Homo sapiens, UniProt P25021); antagonist radioligand, radioligand binding; 10 µM, SafetyScreen44 H2 mean; lower = stronger displacement).
